# Results collected from several papers.
# Numbered parts are unrelated; each lists some results of a single study.

# Block 1 — technique: universal PBM; form: double-stranded DNA, one strand shown; medium: in vitro; concentration: not given; reading: higher = stronger binding
# Target: Sal-like protein 4, full length isoform B (SALL4, Homo sapiens, UniProt Q9UJQ4-2, residues 1-616)
# Setting: 8-mer, flanks averaged, mean of replicates
Oligonucleotide,E-score
CTGGCTAA,-0.106
GCAGACAA,-0.0105
AAGTCCGT,-0.117
AAATTCCG,0.166
ACGCCCCT,-0.154
AATTCATA,0.403
AGTGCAGA,-0.044
CGTTGCCC,-0.318
TAAAGGAA,0.171
GTATGGTA,0.133
CTGCGACC,-0.181
ATTGTGTC,0.223
CGAATTAG,-0.0127
TCTCGCAA,0.032
CTGCTAAG,-0.181
AGATTGGA,0.0693
GAAAGGGA,-0.11
AAATTCTA,0.234
ACTGGGAA,-0.0283
CGTATAAG,0.127
ATTTCGTG,0.084
AGTCTTAA,0.0942
CGTGTTAG,0.0388
ACACAGGC,-0.00429
AGAGTTAT,0.17

# Block 2 — technique: protein binding microarray; form: double-stranded DNA, one strand shown; medium: in vitro; concentration: not given; reference: not given; reading: higher = stronger binding
# Target: Histone acetyltransferase KAT6A, winged helix 2, GST fusion (KAT6A, Homo sapiens, UniProt Q92794, residues 85-181)
# Setting: 8-mer, flanks averaged, mean of 2 arrays, mostly near background
# Construct (chain): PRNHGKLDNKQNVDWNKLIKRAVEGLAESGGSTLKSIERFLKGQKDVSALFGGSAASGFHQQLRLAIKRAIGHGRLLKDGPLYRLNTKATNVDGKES
Oligonucleotide,E-score
ACCCCGTA,-0.0917
CCTAGACA,-0.089
CGGGTGGC,0.227
CCACAGAG,0.0692
CGCAGCTA,0.193
AATGAAAC,0.212
CAAGGCCC,0.219
ACCATACA,-0.122
AGCTCATA,0.0804
CCTGCCTC,0.148
CCCATTGC,0.0896
GTAGGTTA,-0.0555
CTTCTAAC,-0.163
GGGGCAGA,0.152
ACTGGGCG,-0.0468
ACTAGTAT,-0.119
CTAGTGAG,-0.0037
AAATATAT,0.105
GACCCGTA,-0.0118
GAGCTTGA,-0.0839
ATTGGTCA,-0.206
TGTCTGAA,-0.0138
GTGTGTAA,-0.114
AGACTAGC,-0.169
GCCCGGCC,0.187

# Block 3 — technique: RNAcompete; form: RNA; medium: in vitro; concentration: 20 nM; setting: 7-mer, probes averaged, single round; reference: mean of 7-mers; reading: higher = stronger binding
# Target: PABPC1L2, full length, GST fusion (mouse, UniProt A0ABA7IW68)
# Residues (chain): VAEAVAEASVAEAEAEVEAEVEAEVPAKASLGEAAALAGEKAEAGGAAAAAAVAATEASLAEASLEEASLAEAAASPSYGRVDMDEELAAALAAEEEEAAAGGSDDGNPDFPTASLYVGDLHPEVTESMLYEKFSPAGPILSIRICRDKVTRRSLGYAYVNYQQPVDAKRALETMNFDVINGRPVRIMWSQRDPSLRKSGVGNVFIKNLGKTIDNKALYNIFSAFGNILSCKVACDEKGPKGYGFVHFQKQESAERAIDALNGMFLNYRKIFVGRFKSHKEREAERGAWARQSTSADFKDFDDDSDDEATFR
Oligonucleotide,7-mer Z-score
GCGUGGA,0.43
GUACCUA,-0.246
UUGUAGU,-0.286
UCCGCUC,-0.46
GGGCAGA,0.715
CGGGUGG,0.0279
ACACUUA,0.0279
GUACCCA,-0.287
CAACGCU,-0.0935
GAUUCAG,-0.135
AGCUCAG,-0.222
UGUUGCG,-0.287
GUAAGUC,-0.28
GGAAAGC,0.0714
AAGUUCG,-0.104
ACCUUGC,-0.3
UGGCCUG,-0.012
GUUAAAU,0.182
CACUAGU,-0.34
GCUAUCA,-0.0283
UACGGGU,0.157
GAUUGCC,-0.284
UUUUAUA,0.037
CACUGCC,-0.235
GUUGGAC,-0.0971

# Block 4 — technique: protein-binding microarray; form: double-stranded DNA, one strand shown; medium: in vitro; concentration: 940 nM top; setting: 60-bp whole probe; together with: salmon DNA 0.4 mg/ml; reference: random background probes; reading: higher = stronger binding; shared flanks, not repeated: GCCTAGCAC … GTCTTGATTCGCTTGACGCTGCTG
# Target: Interferon regulatory factor 5, full length, phosphomimetic (IRF5, Homo sapiens, UniProt Q13568-2, residues 1-514, S451D/S453D/S456D/S462D)
Oligonucleotide,fitted relative affinity [z-score]
TCAAGCCTAAGGTTTAGGACTGTGCTA,-0.899
TCAGTCTTCCCTTTTAAACTGTGCTAG,0.875
TCAATTTTCAGAATTTAACTGTGCTAG,0.345
TTAGAACTGGGGTATTGATTAGTGCTA,0.505
TTAGATATCGGGTTTCTATTAGTGCTA,1.5
TTAGGACTGGGTTATCGGTTAGTGCTA,-0.077
TTAGGTTTCCATATCCTTTAGTGCTAG,1.95
TTAGATTTCAGGACTGGATTAGTGCTA,-0.111
TTCTAAACCATTTTGGTTTTGTGCTAG,-0.136
TTAGGTTTCCTTCTCCTTGAGTGCTAG,2.19
TTAGGTAACCTACTGCTTTAGTGCTAG,-0.42
TTAGGACTGGGGTTCGGTTAGTGCTAG,-0.0586
GACGGCTTCGGTTTCGGGACGTGCTAG,3.45
GACGGATCCGGTTTCGGGACGTGCTAG,4.04
GAGGATATCGGGTATCGAGACGTGCTA,0.965
TTAGGTTTCGTCTATCGGTTAGTGCTA,8.45
TTAGGACTGGGTTTCGATTAGTGCTAG,6.13
GACGGACTGCTACGGCTGACGTGCTAG,-0.418
TCACTTTTTTGTTCCACACTGTGCTAG,1.43
ATAGATATGCCAAATCTGTGTGTGCTA,-0.324
GACGGTTTCGGTCTCGTGACGTGCTAG,12.7
GACGGACTGGACTATCTGGACGTGCTA,-0.398
TTAAAACTGGGGTATCGATTAGTGCTA,3.37
GACGGTTCCCTATTCCTGACGTGCTAG,0.88
GGGTCTTGCAGTATGGAAAGGTGCTAG,-0.26

# Block 5 — technique: RNA Bind-n-Seq; form: RNA; medium: in vitro; concentration: 1 µM; setting: whole 134-nt RNA, ends assumed; together with: 150 mM KCl; reference: input library; reading: higher = stronger binding
# Target: Ras GTPase-activating protein-binding protein 1, C-terminal RGG region (G3BP1, Homo sapiens, UniProt Q13283)
# UniProt Q13283, sequence (whole entry, looked up): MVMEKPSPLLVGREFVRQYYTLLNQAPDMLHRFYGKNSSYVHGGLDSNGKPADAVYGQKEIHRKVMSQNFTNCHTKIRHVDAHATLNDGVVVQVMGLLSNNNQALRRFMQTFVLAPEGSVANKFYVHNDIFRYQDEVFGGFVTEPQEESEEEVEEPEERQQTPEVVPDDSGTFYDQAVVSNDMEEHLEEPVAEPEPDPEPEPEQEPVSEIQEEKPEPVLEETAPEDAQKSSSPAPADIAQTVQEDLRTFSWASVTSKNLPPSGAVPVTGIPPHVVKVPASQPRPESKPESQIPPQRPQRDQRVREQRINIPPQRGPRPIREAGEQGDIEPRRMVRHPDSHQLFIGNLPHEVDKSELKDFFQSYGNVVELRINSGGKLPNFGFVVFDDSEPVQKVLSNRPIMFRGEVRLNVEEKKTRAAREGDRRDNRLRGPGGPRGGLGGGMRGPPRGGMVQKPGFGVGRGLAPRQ
# Shared flanks, not repeated: GGGAGUUCUACAGUCCGACGAUC … UGGAAUUCUCGGGUGUCAAGG
Oligonucleotide,log2 enrichment
GCAGGAAGUAAAAACAAAUGGAAAUGCUUCGGAUAGUGGAAAGGGUGGGGGUUGCUAAGGAAAGGGUGGGAUGGGAGUGGGUAAAGAGUU,1.95
AGUCCUGUGCUACACAUCGUAUGUACCGAAUCAAACCCAAACCCCCAAAUUUUUAAAAAAGUAUUAUGUUACGCCGUUCGGAUCUGCACU,-0.876
CUCAAGUCCUGUGCUACACAUCGUAUGUACCGAAUCGGAGGAGGAAAAAAAGGAAAGUAUUAUGUUACGCCGUUCGGAUCUGCACUUCCA,-1.35
CCUCAAGUCCUGUGCUACACAUCGUAUGUACCGAAUCGGUUGGUUGGUUGGGGAAAGUAUUAUGUUACGCCGUUCGGAUCUGCACUUCCA,-1.06
GUCCUGUGCUACACAUCGUAUGUACCGAAUCGGGGAAAAAGGGAAAAAGGGAAAAAGGGAAAGUAUUAUGUUACGCCGUUCGGAUCUGCA,-0.554
UAACUUUAGAGGAGGAUCUGAUGGAUAUGGCAGUGGAAGUGGAUUUGGGGAUGGCUAUAAUGGGUAUGGAGGAGGACCUGGAGGUGGCAA,-1.16
GCAGGAAGUAAAAACAAAUGGAAAUGCUUCGUAUAGUGGCAGGGGUGGGGGUUGCUAAGGAAAGGGUGGGAUGGGAGUGGGUAAAGAGUU,1.61
UCCUGUGCUACACAUCGUAUGUACCGAAUCGGGCCCCCGGGCCCCCGGGGCCCCCGGGGAAAGUAUUAUGUUACGCCGUUCGGAUCUGCA,-1.63
ACCAUGCAGGUGGGCAUCUUUGGGAAGUGGGGCAAGGGGGGGAUAGGGAGGGUGGUAACACUUUGGGAACAGGUGGUCCCAGGUCGUUUC,2.09
AAGUCCUGUGCUACACAUCGUAUGUACCGAAUCGGGUUUGGGAAAAAGGGAAAGGGAAAGUAUUAUGUUACGCCGUUCGGAUCUGCACUU,1.64
